Assay results of several laboratories.
Compare with care: the assays were run in different laboratories. ± gives the spread as reported.
CDC48A: CDC48A 1-463 (Arabidopsis thaliana, UniProt P54609)
Sequence of UniProt P54609 (whole entry, looked up): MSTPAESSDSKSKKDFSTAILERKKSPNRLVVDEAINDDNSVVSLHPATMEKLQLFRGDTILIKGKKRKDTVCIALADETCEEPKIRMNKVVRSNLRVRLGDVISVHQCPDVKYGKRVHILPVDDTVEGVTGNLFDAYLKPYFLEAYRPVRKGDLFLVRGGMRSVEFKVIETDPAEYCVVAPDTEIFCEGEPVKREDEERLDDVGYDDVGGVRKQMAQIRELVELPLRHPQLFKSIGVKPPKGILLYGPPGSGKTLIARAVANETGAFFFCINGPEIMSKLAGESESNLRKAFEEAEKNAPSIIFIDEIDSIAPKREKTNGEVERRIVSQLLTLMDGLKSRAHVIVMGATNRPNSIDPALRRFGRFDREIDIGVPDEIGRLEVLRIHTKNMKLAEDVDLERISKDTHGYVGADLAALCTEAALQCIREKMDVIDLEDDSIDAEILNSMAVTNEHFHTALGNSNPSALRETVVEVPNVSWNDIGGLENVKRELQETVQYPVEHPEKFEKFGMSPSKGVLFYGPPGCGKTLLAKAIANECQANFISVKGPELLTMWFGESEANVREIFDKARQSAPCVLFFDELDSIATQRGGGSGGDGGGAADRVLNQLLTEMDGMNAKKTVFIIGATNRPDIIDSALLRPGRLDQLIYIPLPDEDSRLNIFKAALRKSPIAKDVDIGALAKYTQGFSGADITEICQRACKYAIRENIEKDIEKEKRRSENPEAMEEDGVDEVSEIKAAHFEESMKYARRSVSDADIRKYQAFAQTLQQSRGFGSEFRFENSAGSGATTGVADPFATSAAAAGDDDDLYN
TNFSF4: TNFSF4 51-183 (Homo sapiens, UniProt P23510)
Sequence of UniProt P23510 (whole entry, looked up): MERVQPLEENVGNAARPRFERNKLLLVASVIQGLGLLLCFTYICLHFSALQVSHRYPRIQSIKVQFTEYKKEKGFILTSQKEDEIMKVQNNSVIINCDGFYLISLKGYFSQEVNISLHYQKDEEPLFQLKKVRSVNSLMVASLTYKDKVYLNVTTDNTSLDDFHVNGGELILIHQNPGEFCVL
PIK3R1: PIK3R1 80-724 (Homo sapiens, UniProt P27986)
B1: PUX6 269-435 (Arabidopsis thaliana, UniProt F4IXN6); chain VTYTVTIWRNGFTVDDDPFKSLDDPENAAFLEYMPEDNKFGVPTTTRSTSCSSQTHQELQTLAGSESTSTEPPLTTTQPPSMSSLVVDPAAPTTSIQLILADSTRIVTQFNTHHTIRDIRCFIDTSRPDGSKDYQLLIMGSPPTPLSDFDQTIEKAGIANSVLVQKF
B2: TNFRSF4 29-170 (Homo sapiens, UniProt P43489); sequence looked up; chain LHCVGDTYPSNDRCCHECRPGNGMVSRCSRSQNTVCRPCGPGFYNDVVSSKPCKPCTWCNLRSGSERKQLCTATQDTVCRCRAGTQPLDSYKPGVDCAPCPPGHFSPGDNQACKPWTNCTLAGKHTLQPASNSSDAICEDRD
B3: RelA/NFKB1 190-321; chain 1 NTAELKICRVNRNSGSCLGGDEIFLLCDKVQKEDIEVYFTGPGWEARGSFSQADVHRQVAIVFRTPPYADPSLQAPVRVSMQLRRPSDRELSEPMEFQYLPDTDDRHRIEEKRKRTYETFKSIMKKSPFNGP; chain 2 LKIVRMDRTAGCVTGGEEIYLLCDKVQKDDIQIRFYEEEENGGVWEGFGDFSPTDVHRQFAIVFKTPKYKDVNITKPASVFVQLRRKSDLETSEPKPFLYYPE
B4: DUSP1 3-148 (Homo sapiens, UniProt P28562); sequence looked up; chain MEVGTLDAGGLRALLGERAAQCLLLDCRSFFAFNAGHIAGSVNVRFSTIVRRRAKGAMGLEHIVPNAELRGRLLAGAYHAVVLLDERSAALDGAKRDGTLALAAGALCREARAAQVFFLKGGYEAFSASCPELCSKQSTPMGLSLP
B5: DTNB 422-535 (Homo sapiens, UniProt O60941-1); sequence looked up; chain PPTDLSFNFDANKQQRQLIAELENKNREILQEIQRLRLEHEQASQPTPEKAQQNPTLLAELRLLRQRKDELEQRMSALQESRRELMVQLEELMKLLKEEEQKQAAQATGSPHTS
B6: HCK 78-138 (Homo sapiens, UniProt P08631); chain SEDIIVVALYDYEAIHHEDLSFQKGDQMVVLEESGEWWKARSLATRKEGYIPSNYVARVDS
B7: PIK3R1 1-79 (Homo sapiens, UniProt P27986); chain MSAEGYQYRALYDYKKEREEDIDLHLGDILTVNKGSLVALGFSDGQEARPEEIGWLNGYNETTGERGDFPGTYVEYIGR
B8: PUX6 (Arabidopsis thaliana, UniProt F4IXN6); chain MDVNSPETTEKHLNEVSADAAKPNVPNPNDELLRRNPSSFPNLRIKIPTSSFSTFDGSSGYSPSRLQLRPPWPSLKRAAANPFSRQNKRRQGAGNVRIDDFSGGTGSDSDEAVEHYGGEENRAIERPEQSSRSMSEETVSSELEEEPQKVFTHTVTSWSNGFTVDDSSLKTLDDPENATFLEIISSMESPRELGQVRVQVKIISREEENYTESQAGSDSASTKPPPALAMRAKESAIERSEQSSKVLSGETDSAELQEQQQEDQPYEVVTYTVTIWRNGFTVDDDPFKSLDDPENAAFLEYMPEDNKFGVPTTTRSTSCSSQTHQELQTLAGSESTSTEPPLTTTQPPSMSSLVVDPAAPTTSIQLILADSTRIVTQFNTHHTIRDIRCFIDTSRPDGSKDYQLLIMGSPPTPLSDFDQTIEKAGIANSVLVQKF
B9: TNFRSF4 29-170 D124A (Homo sapiens, UniProt P43489); sequence looked up; chain LHCVGDTYPSNDRCCHECRPGNGMVSRCSRSQNTVCRPCGPGFYNDVVSSKPCKPCTWCNLRSGSERKQLCTATQDTVCRCRAGTQPLDSYKPGVACAPCPPGHFSPGDNQACKPWTNCTLAGKHTLQPASNSSDAICEDRD
Sequence of UniProt P25963 (whole entry, unmodified, looked up): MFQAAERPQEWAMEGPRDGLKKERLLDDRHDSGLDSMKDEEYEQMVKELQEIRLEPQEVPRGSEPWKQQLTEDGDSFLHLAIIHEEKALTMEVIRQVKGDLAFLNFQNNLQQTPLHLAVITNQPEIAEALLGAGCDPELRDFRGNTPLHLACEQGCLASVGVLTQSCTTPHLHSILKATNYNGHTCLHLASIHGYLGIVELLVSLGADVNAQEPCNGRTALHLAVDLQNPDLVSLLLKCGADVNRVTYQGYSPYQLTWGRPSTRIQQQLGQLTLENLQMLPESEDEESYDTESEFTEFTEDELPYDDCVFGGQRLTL
Sequence of UniProt Q94JZ8 (whole entry, unmodified, looked up): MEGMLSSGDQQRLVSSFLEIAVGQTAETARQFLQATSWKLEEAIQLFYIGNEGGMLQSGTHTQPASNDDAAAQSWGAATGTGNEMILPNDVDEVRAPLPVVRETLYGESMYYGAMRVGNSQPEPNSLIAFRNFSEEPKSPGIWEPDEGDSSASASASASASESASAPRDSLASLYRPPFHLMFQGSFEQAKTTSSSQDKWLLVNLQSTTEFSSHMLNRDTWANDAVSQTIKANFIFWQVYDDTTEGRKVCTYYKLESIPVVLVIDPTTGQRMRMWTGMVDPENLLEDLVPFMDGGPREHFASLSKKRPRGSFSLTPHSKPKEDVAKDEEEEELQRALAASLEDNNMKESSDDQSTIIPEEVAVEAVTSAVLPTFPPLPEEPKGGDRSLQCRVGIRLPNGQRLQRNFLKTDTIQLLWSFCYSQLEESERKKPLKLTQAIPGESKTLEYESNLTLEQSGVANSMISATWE
Sequence of UniProt Q12142 (whole entry, unmodified, looked up): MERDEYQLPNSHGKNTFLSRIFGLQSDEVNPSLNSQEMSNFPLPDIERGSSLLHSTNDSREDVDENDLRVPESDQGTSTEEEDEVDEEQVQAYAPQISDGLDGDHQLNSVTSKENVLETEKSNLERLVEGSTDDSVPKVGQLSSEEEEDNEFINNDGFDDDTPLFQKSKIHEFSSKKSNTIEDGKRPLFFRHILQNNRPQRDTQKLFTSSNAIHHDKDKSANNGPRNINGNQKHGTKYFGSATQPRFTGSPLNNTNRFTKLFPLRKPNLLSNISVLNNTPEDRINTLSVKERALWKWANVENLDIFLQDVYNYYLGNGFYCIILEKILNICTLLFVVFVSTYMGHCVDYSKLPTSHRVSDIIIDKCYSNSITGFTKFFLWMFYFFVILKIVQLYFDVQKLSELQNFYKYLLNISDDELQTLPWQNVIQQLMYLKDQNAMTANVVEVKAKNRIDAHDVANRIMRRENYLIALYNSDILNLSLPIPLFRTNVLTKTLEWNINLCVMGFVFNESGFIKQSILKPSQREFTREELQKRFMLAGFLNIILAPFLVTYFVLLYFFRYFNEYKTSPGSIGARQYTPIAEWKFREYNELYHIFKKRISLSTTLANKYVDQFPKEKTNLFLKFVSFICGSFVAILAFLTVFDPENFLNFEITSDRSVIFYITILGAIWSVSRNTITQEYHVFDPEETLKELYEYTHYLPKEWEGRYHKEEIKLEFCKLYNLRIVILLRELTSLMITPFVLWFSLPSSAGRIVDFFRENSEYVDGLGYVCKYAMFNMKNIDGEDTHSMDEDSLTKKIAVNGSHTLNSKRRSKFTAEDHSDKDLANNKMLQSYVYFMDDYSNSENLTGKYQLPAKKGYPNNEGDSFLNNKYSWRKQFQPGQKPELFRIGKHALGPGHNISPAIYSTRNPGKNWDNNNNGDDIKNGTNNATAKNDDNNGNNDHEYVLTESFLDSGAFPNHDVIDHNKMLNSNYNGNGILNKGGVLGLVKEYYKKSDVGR
Sequence of UniProt P17948 (whole entry, unmodified, looked up): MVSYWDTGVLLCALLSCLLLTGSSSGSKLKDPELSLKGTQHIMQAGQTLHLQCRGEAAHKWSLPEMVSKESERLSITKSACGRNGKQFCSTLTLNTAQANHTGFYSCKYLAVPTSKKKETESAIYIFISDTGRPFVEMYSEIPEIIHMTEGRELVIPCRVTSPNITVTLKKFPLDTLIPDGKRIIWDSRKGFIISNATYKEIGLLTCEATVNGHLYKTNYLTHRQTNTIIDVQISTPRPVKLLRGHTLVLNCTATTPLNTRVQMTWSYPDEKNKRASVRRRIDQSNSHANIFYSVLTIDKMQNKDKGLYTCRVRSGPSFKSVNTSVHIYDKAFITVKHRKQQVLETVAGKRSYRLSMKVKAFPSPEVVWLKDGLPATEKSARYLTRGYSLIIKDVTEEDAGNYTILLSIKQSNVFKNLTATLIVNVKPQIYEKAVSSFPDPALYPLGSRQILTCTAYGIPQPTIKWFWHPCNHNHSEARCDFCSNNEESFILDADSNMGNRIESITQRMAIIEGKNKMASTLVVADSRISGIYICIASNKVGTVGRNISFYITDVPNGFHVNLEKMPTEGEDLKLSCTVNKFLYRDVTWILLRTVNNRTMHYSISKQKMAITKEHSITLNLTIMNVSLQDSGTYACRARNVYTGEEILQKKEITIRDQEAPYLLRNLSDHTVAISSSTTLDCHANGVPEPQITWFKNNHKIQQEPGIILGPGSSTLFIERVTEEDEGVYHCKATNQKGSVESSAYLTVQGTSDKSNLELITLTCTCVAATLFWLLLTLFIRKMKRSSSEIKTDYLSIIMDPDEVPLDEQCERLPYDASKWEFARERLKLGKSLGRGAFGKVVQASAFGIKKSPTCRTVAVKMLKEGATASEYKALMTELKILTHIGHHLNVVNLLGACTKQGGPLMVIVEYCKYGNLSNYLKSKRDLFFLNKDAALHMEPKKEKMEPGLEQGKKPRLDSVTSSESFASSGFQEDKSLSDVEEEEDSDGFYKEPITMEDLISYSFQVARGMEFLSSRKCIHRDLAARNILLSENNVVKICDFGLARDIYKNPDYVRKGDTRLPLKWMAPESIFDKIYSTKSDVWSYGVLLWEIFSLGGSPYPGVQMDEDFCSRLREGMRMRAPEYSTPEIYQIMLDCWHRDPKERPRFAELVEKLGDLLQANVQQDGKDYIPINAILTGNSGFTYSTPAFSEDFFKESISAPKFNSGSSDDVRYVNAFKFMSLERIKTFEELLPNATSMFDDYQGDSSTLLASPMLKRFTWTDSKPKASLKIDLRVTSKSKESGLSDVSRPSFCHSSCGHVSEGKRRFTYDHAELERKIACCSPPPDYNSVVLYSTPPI
Sequence of UniProt Q4V3D3 (whole entry, unmodified, looked up): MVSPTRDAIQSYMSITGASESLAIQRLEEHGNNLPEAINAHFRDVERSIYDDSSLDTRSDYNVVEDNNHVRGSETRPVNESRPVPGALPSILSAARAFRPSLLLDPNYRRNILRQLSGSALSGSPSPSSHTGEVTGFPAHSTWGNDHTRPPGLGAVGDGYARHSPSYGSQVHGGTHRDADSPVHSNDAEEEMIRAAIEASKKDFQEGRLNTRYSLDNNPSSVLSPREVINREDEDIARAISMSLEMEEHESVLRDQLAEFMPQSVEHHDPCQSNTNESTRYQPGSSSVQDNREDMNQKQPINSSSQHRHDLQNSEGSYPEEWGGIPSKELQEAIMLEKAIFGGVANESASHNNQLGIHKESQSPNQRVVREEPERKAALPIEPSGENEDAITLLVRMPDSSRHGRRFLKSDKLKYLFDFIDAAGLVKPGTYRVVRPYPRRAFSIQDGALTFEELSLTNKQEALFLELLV
Sequence of UniProt Q16539 (whole entry, unmodified, looked up): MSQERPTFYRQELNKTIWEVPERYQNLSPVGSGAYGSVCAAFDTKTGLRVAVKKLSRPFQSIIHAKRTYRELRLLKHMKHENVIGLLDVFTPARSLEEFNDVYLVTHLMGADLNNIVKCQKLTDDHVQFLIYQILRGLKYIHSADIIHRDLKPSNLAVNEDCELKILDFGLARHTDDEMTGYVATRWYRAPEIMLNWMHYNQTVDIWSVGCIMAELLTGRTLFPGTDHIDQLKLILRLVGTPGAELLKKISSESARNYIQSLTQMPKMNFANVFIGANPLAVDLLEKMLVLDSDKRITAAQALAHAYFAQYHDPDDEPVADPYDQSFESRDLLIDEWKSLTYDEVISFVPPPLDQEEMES

`LPDTDDRHRIEEKRKRTYETFKSAMKKSPFNGP (Rela 289-321 I312A (Mus musculus, UniProt Q04207); sequence looked up)` gave a ΔH of -7.3 ± 0.2 kcal/mol (NFKBIA 67-206 (Homo sapiens, UniProt P25963); ITC; peptide).
`B1 (PUX6 269-435)` has a ΔH of 1.91 ± 0.0717 kcal/mol (CDC48A; ITC).
The ΔH of `B2 (TNFRSF4 29-170)` is reported as -16.9 kcal/mol (TNFSF4; SPR; van't Hoff).
The ΔH of `B3 (RelA/NFKB1 190-321)` is reported as -12 kcal/mol (NFKBIA 67-287 (Homo sapiens, UniProt P25963); ITC).
`PUX7 fragment (Arabidopsis thaliana)` gave a ΔH of 1.29 ± 0.0956 kcal/mol (CDC48A; ITC).
The ΔH of `EPYC (Homo sapiens, UniProt Q99645)` is reported as -1360 ± 120 kcal/mol (FLT1 27-758 (Homo sapiens, UniProt P17948); ITC).
With `B4 (DUSP1 3-148)` the ΔH was -2.2 ± 0.2 kcal/mol (MAPK14 2-349 (Homo sapiens, UniProt Q16539); ITC).
`PUX7 (Arabidopsis thaliana, UniProt Q94JZ8)` gave a ΔH of 3.68 ± 0.0717 kcal/mol (CDC48A; ITC).
`B5 (DTNB 422-535)` gave a ΔH of -13.6 kcal/mol (DMD 3365-3685 (Homo sapiens, UniProt P11532-1); ITC; 25 °C).
The ΔH of `LPDTDDRHRIEEKRKRTYETFKSIMKKSPFNGP (Rela 289-321 (Mus musculus, UniProt Q04207); sequence looked up)` is reported as -3.6 ± 0.4 kcal/mol (NFKBIA 67-206 (Homo sapiens, UniProt P25963); ITC; peptide; NaCl 150 mM).
`BRCA1 coiled-coil domain M1400T (Homo sapiens)` gave a ΔH of -1.8 ± 0.3 kcal/mol (PALB2 1-56 (Homo sapiens, UniProt Q86YC2); ITC).
The ΔH of `B6 (HCK 78-138)` is reported as -7.05 ± 0.335 kcal/mol (PIK3R1; ITC).
For `PUX9 (Arabidopsis thaliana, UniProt Q4V3D3)`, the ΔH was 5 ± 0.598 kcal/mol (CDC48A; ITC).
For `KISPPTPKPRPPRPLPVAPGS (PIK3R1 proline-rich region 1 (Homo sapiens))`, the ΔH was -7.03 ± 0.263 kcal/mol (FYN 72-142 (Homo sapiens, UniProt P06241); ITC; peptide).
For `PUX6 fragment (Arabidopsis thaliana)`, the ΔH was 2.2 ± 0.0956 kcal/mol (CDC48A; ITC).
For `B7 (PIK3R1 1-79)`, the ΔH was -3.87 ± 0.741 kcal/mol (PIK3R1; ITC).
`QGRWDHETIV` gave a binding intensity of 0.235 (human MAGI1-3/6 PDZ construct (MBP fusion); automated holdup; peptide, crude extract; concentration not given, uncorrected, unit not given; relative to: biotin control resin, higher = stronger binding).
The ΔH of `B8 (PUX6)` is reported as 2.65 ± 0.12 kcal/mol (CDC48A; ITC).
For `Atg23 full-length, dimer (yeast, UniProt Q06671)`, the ΔH was -1.77 kcal/mol (ATG9 1-255 (Saccharomyces cerevisiae, UniProt Q12142); ITC; pH 8, 20 °C, NaCl 150 mM, independent binding model, with: TCEP 0.2 mM).
`KPGKGSETVV` gave a binding intensity of 0.128 (human MAGI1-3/6 PDZ construct (MBP fusion); automated holdup; peptide, crude extract; concentration not given, corrected by standard peak, unit not given; relative to: biotin control resin, higher = stronger binding).
The ΔH of `DDRHRIEEKRKRTYETFKSIMKKSPFNGP (Rela 293-321 (Mus musculus, UniProt Q04207); sequence looked up)` is reported as -4.3 ± 0.2 kcal/mol (NFKBIA 67-206 (Homo sapiens, UniProt P25963); ITC; peptide; NaCl 150 mM).
For `B9 (TNFRSF4 29-170 D124A)`, the ΔH was -11.7 kcal/mol (TNFSF4; SPR; van't Hoff).

A few entries again:
For `B7 (PIK3R1 1-79)`, the ΔH was -3.87 ± 0.741 kcal/mol (PIK3R1; ITC).
`QGRWDHETIV` gave a binding intensity of 0.235 (human MAGI1-3/6 PDZ construct (MBP fusion); automated holdup; peptide, crude extract; concentration not given, uncorrected, unit not given; relative to: biotin control resin, higher = stronger binding).
The ΔH of `B8 (PUX6)` is reported as 2.65 ± 0.12 kcal/mol (CDC48A; ITC).
